Measurements gathered from unrelated publications.
Numbered parts are unrelated; each lists some results of a single study.

Block 1 — technique: RNA Bind-n-Seq; molecule type: RNA; matrix: in vitro; concentration: 200 nM; setting: whole 134-nt RNA, ends assumed; added: 150 mM LiCl; baseline: input library; direction: higher = stronger binding; library: 7-deaza-guanosine replaces G
Target: Fragile X messenger ribonucleoprotein 1, C-terminal low-complexity region (Fmr1, Mus musculus, UniProt P35922)
For `GGGAGUUCUACAGUCCGACGAUCACCAUGCAGGUGGGCAUCUUUGGGAAGUGGGACAAGGGGGGGAUAGGGAGGGGGGUAACACUUUGGGAACAGGUGGUCCCAGGUCGUUUCUGGAAUUCUCGGGUGUCAAGG`, the log2 enrichment was 1.41.
For `GGGAGUUCUACAGUCCGACGAUCUCCUGUGCUACACAUCGUAUGUACCGAAUCGGGUUUUUUUGGGUUUGGGUUUUUUUGGGAAAGUAUUAUGUUACGCCGUUCGGAUCUGCAUGGAAUUCUCGGGUGUCAAGG`, the log2 enrichment was -0.507.
The log2 enrichment of `GGGAGUUCUACAGUCCGACGAUCUCCUGUGCUACACAUCGUAUGUACCGAAUCGGGUUUUUGGGGUUUUUGGGGUUUUUGGGGAAAGUAUUAUGUUACGCCGUUCGGAUCUGCUGGAAUUCUCGGGUGUCAAGG` is reported as -1.11.
`GGGAGUUCUACAGUCCGACGAUCUGGCCCUGGUGGCAUGCGGGGAGGAAGAGGUGGCCUCAUGGAUCGUUGUGGUCCCGGUGGAAUGUUCAGAGGUGGCCGUGGUGGAGACAGUGGAAUUCUCGGGUGUCAAGG` has a log2 enrichment of 0.101.

Block 2 — technique: RNA Bind-n-Seq; molecule type: RNA; matrix: in vitro; concentration: 365 nM; baseline: no-protein control; direction: higher = stronger binding
Target: RNA binding protein fox-1 homolog 2, RRM domain, GST-SBP tag (RBFOX2, Homo sapiens, UniProt O43251-10, residues 100-194)
Setting: natural RNA segment, single round, ends assumed
Target sequence (chain): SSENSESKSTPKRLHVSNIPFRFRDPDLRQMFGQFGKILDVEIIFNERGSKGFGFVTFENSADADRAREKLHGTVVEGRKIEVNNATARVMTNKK
`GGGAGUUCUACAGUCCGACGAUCAUUUUUACUUCAUACUUCCAUUCACAAAUUGUAGCUAUCCAUUAUUAAUUGCUAGUACUUGUUUUUUAAACAACACUUUGUAGCAUGGGAACAACCCUCCCCCUUUCCAUUGGAAUUCUCGGGUGCCAA`: “RBNS enrichment (R)” 0.666.
`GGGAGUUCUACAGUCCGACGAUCGGUCUAUAUUCUGUAUGUGGAUAACAGACCCAAUCAGGAAACGAGCCUUAUGUGUGUCGUUAACAUUUAUAUUUUCAUUCAAAAUAUGUAUUCAGUGUUUAUUUCCUUAAUGGAAUUCUCGGGUGCCAA`: “RBNS enrichment (R)” 0.903.
`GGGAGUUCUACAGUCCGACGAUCUAGUCUAACUCACCUAUUAACCUCUCUCAUCCUGGGUCAUCCUCCCUCCUUUCUCAGUGUCUGAUUCUCCACCCUCACACUCCCCACACCCACUCUCCCAUGCUUCUUUUUGGAAUUCUCGGGUGCCAA`: “RBNS enrichment (R)” 1.03.
`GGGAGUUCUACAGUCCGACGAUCAAACAGUGGGGCCAGCUGCCCUGGUAUUCCAGAUACCCUGAAGCGUCUCCGUGCAGAUCUUGAAGAGAAAGAACCUCGGCUGCUGUGCUGGGGUUGAACAGAGCCUCCCAUGGAAUUCUCGGGUGCCAA` — result for “RBNS enrichment (R)”: 0.313.
`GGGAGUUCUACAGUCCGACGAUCCUAAGUUGCAGGAACAGGAUGAAAAUUCUUUAUUACCCUCUUCAACUUUUAGGACGAGCACUUGGGAGUGUGAGGCCUUCCUGGCUGCUUCUAUGUAGUCCUACCACCUGUGGAAUUCUCGGGUGCCAA`: “RBNS enrichment (R)” 0.281.

Block 3 — technique: protein binding microarray; molecule type: double-stranded DNA, one strand shown; matrix: in vitro; concentration: not given; baseline: not given; direction: higher = stronger binding
Target: Histone acetyltransferase KAT6A, winged helix 1, GST fusion (KAT6A, Homo sapiens, UniProt Q92794, residues 1-85)
Setting: 8-mer, flanks averaged, mean of 2 arrays, mostly near background
Residues (chain): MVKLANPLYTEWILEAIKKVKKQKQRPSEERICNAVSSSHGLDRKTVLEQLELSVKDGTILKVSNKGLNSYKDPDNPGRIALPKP
`CAAGACGA` has an E-score of -0.0831.
For `AGCCCGCG`, the E-score was 0.354.
`TCTCACAA` has an E-score of -0.0578.
`CTATGACA` gave an E-score of -0.0254.

Other studies, line by line
The fold induction of `PhoQ, residues 284 288 289 292 302 303 SSLVEF` is reported as 1.84 (PhoP, residues 12 14 15 18 19 LHSVQ (Escherichia coli, UniProt P23836); Sort-seq, refers to: YFP reporter; E. coli; PhoQ-PhoP variant library, added: 10 µM Mg2+; baseline: high Mg2+ state, higher = stronger signaling).
